Measurements collected from several papers.
Parts stem from different laboratories: compare values within a part only.

Series 1 — method: protein-binding microarray; form: double-stranded DNA, one strand shown; medium: in vitro; concentration: 2200 nM top; notes: 60-bp whole probe; together with: salmon DNA 0.4 mg/ml; reference: random background probes; reading: higher = stronger binding; all sequences stand within: GCCTAGCAC … GTCTTGATTCGCTTGACGCTGCTG
Target: Interferon regulatory factor 7, full length, phosphomimetic (IRF7, Homo sapiens, UniProt Q92985, residues 1-503, S471D/S472D/S475D/S476D/S477D/S483D/S484D/S487D)
Target sequence (chain): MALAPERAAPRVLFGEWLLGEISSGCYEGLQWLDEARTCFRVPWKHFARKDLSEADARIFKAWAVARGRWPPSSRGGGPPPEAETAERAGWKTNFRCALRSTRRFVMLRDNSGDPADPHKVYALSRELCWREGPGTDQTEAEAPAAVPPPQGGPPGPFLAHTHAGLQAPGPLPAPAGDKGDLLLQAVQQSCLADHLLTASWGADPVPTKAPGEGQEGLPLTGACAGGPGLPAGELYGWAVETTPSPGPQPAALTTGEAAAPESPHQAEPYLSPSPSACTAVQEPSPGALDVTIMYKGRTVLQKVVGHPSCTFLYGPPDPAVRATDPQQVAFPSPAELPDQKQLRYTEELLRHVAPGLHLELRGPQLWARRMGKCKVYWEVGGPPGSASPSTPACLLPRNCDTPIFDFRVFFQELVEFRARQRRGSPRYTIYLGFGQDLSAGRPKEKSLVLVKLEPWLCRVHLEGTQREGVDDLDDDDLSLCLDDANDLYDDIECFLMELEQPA
Oligonucleotide	fitted relative affinity [z-score]
TTATGTTCCGGTTTCGGTTAGTGCTAG	8.91
TCAGATCTGCCGTCCCACTCAGTGCTA	1.09
TTAGAGCTGGGGTATCGATTAGTGCTA	-0.298
TTATGTTTCCTTTTCCTTTAGTGCTAG	7.31
AGTGAATTAGGTTTCACTTTGTGCTAG	4.61
TTAGGACTGGACTATGGGTTAGTGCTA	-0.526
GTCGGACTGGGTTTCGGGACGTGCTAG	1.44
TTAGGACTGGGGTTTCGGATAGTGCTA	0.627
TTCTAAATATCTTTGTTGAAGTGCTAG	-0.0828
GACGATATCGGACTGGAGACGTGCTAG	0.149
ATTGCTTTCTCTTTCATTGCGTGCTAG	7.25
TTAGTTCTCAGACTGGATTAGTGCTAG	0.346
TTAGGTCTCGGTGTCGGTTAGTGCTAG	0.508
CCACTTTCAGTTCTCCCTTTGTGCTAG	10.8
TTAGGCTTCGGTATCGGTTAGTGCTAG	0.424
GTCAAACTCACTCATGGCTTTGTGCTA	0.529
TTAGCTATCAGTCTCGATTAGTGCTAG	0.561
TTTTTTTTTTTTTTTTGTATGTGCTAG	2.02
TTTTTCTCCTATTTAAGACAGTGCTAG	1.83
GTAGGACTGGGACTGGGTTAGTGCTAG	-0.891
TTAGGTATCGACTAGCGGTTAGTGCTA	-0.136
TTAGATTTCGGACTGGATTAGTGCTAG	1.06
TTAGGACGGGGTATCGGTTAGTGCTAG	-0.207
GTCGGTATCGACTATCGGGACGTGCTA	0.694
GACGATATAAGTTTCGAGACGTGCTAG	2.98

Series 2 — method: RNA Bind-n-Seq; form: RNA; medium: in vitro; concentration: 365 nM; reference: no-protein control; reading: higher = stronger binding
Target: RNA binding protein fox-1 homolog 2, RRM domain, GST-SBP tag (RBFOX2, Homo sapiens, UniProt O43251-10, residues 100-194)
Notes: natural RNA segment, single round, ends assumed
All sequences stand within: GGGAGUUCUACAGUCCGACGAUC … UGGAAUUCUCGGGUGCCAA
Target sequence (chain): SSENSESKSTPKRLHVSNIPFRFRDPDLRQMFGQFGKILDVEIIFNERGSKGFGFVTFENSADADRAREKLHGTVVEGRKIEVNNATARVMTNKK
Oligonucleotide	RBNS enrichment (R)
UUGCUGGCCAGGGGUCCCUUGGGGCAGCACGUGGACCCUUCCAAAACUAUACACACUGCCCCCGACUCCAUGCAGUCUUGAGUGCCCUAAGUUGUCAGCCCAACAGAGUU	0.476
CCUCUGUCCUAAACCGUCCCCUCCUUCCCUCACCCCCAGCACAGGGGGAUUCUGAGCAGUGCCUCUUGUCUGAGGGACAUAUCAGUGACCUCGACGUUGCCUUUAGACUA	0.48
ACGGCGCUGAGGGUCGGCAGGCUGGGGCUAUUUUUACCUCCUGACUCCCUUGCUGGGCACUACCCCCCCACCUGAUACCCUGCUGUGUAGUCUGACACUGGAGUCCCCAA	0.485
AAAAACCCACUAAAGUGAAGCAUUUCUUGAUUCCCUUUUCCAUGCUGGUGCCUAGCCCGGGUGAGUGAGGCUGGCUGUGUUGGCCUGGGUGACUUGUGGUUGUAGAGUUG	0.413
UUACAUGGGAAGAACUGCUCUAACCCACUGUGCUAAUGUUCAGAAGCAGAGCCCUCAGUGAGAGCUGCACACACGAGCCUCUAGCAUCACUACACAGUGUGCACACACUG	0.424
CAGAUCCCUGCCCAUGCUGUUCCCCUUAGCAGCCUGCCUGUUCAUAGAGCGUUUCCCCUCUUGCUAACUCCCCAUUUUCUCCGUGAGCUCUGACUCCUAUUUAUCAUAUA	0.837
GAACAGACAAGUGGAAGGGCUGUACCAGGGAUAAAGGAAAGAAGUGCCUGUCCAGCAGGGAGCUUGAAUUUAAGUUCCAUGUAUGAAGUCAUUGGCUCUAUCUGCAUUUU	0.45
UUCAGCCACAGCUGUGAGCAGCUCUCUGCCAGCUAUGUGGCCAGGGACCACAAAACUACCAUGUGAGACUGUGGACCCCACCCACACAGGCCAGGGCAGAUGGCCAAGGG	0.581
AUCUUUAGCCCCCUGAUCUGUCUCAACAGUCUGGGCCUCAGUGCUAGGGGCCAGAGCACCUCUAGGCUGAUUCCUCACCUUUUGGGUCUGAGGGCAGCUGCUCUCCCAGC	0.259
GAAGUAAAUUCUGGCACAAAGCGUAAAAAUAUAACAGAAGAAAUAAUGUAAAAUACUAUCUUUUAUGUCUAAAGCCAUUUUAUAUUACUUUUCAAUAAAAAGAAUAUCAU	0.601
AAAUUCCAUUUCAUCGGGAUGGAACUGAAGGAUUUUAUUCUAUAAAGCGGCCCUGGUUGAAUCUGGCAAUUCUUUUUGCCAAGAUCCCUAGCAGAAGAUUUAGCCAUGUC	0.271
UCUCGAUGGACAAUGAACGGCCUUGCUGGGGGCCGCCCUGUACCCUCUUUCACCUUUCCCUAAAGACCCUAAAUCUGAGGAAUCAACAGGGCAGCAGAUCUGUAUAUUUU	0.387

Series 3 — method: RNA Bind-n-Seq; form: RNA; medium: in vitro; concentration: 15 pmol; notes: 4-mer, random 30-nt RNA, single round; together with: 3 µM RocA, 2 mM AMP-PNP; reference: mean of 4-mers; reading: higher = stronger binding
Target: Eukaryotic initiation factor 4A-I (EIF4A1, Homo sapiens, UniProt P60842, residues 1-406, full length assumed)
UniProt P60842, sequence (whole entry, looked up): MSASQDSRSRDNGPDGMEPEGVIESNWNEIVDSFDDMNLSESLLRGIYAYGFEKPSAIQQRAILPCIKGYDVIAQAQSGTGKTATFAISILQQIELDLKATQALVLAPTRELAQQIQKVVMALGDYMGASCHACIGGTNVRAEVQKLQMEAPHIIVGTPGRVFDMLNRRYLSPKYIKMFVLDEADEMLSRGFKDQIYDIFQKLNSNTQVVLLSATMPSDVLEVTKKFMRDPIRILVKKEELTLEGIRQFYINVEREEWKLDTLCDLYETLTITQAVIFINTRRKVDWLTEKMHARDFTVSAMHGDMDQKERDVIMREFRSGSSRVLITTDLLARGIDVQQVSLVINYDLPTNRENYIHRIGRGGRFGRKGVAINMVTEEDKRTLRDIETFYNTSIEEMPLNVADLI
Oligonucleotide	4-mer enrichment Z-score
GUCG	-0.244
ACAC	-1.31
GUAA	1.08
CCUU	-1.1
ACUA	-0.501
UAUG	0.704
UCCA	-1.36
GAGG	1.82
CGGU	0.185
CAAC	-1.3
GGCU	-0.0555
CUCG	-0.897
CCAG	-0.773
CGUA	-0.0937
ACGA	0.164
GCCC	-0.83
ACGG	0.131
CAGU	-0.637
AGGG	1.64
GCCG	-0.348

Series 4 — method: protein binding microarray; form: double-stranded DNA, one strand shown; medium: in vitro; concentration: not given; reference: not given; reading: higher = stronger binding
Target: Histone acetyltransferase KAT6A, both winged helices, GST fusion (KAT6A, Homo sapiens, UniProt Q92794, residues 1-181)
Notes: 8-mer, flanks averaged, mean of 2 arrays, mostly near background
Construct (chain): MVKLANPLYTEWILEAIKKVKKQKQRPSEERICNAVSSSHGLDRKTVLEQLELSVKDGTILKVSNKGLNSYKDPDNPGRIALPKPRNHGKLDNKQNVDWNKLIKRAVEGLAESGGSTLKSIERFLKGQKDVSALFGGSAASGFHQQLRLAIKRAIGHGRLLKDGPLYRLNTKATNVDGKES
Oligonucleotide	E-score
ATTATGAA	-0.0348
CCGCTGAC	0.234
CGAACGCA	0.123
GGGCCGCA	0.188
ATGTATTC	0.00941
GGAGTCAC	-0.152
CCGACAAG	0.0783
AACCCGGG	0.322
CGGTACAC	0.172
CTACTACA	-0.0162
CTCGAGGA	-0.194
ACACACTG	0.0186
CTGGAATC	-0.0329
GAAGGTAA	-0.115
ACCCTTCA	-0.154
AGGAGCGA	-0.00466
CCTTGCAG	-0.0216
ATTCAATA	-0.122
TTACGCAA	0.122
AGCACGGA	0.123
CTTGAGGC	-0.0082
ATAGTCCA	-0.182
AAGATGTG	-0.272
AACAATAG	-0.131
GACGAGAA	-0.0996

For quick reference, copied from above (series 4):
Oligonucleotide	E-score
CGAACGCA	0.123
AACCCGGG	0.322
ATGTATTC	0.00941
CTCGAGGA	-0.194
CCTTGCAG	-0.0216
AAGATGTG	-0.272
CGGTACAC	0.172
GACGAGAA	-0.0996
